Results gathered from unrelated publications.
Each numbered part is a random draw from the data of one study; scales do not carry over between parts. Substitutions count along the parent as printed.

Study 1
Target: RNA binding protein fox-1 homolog 2, RRM domain, GST-SBP tag (RBFOX2, Homo sapiens, UniProt O43251-10, residues 100-194)
Technique: RNA Bind-n-Seq
Form: RNA
Matrix: in vitro
Concentration: 365 nM
Setting: natural RNA segment, single round, ends assumed
Baseline: no-protein control
Reading: higher = stronger binding
Target sequence (chain): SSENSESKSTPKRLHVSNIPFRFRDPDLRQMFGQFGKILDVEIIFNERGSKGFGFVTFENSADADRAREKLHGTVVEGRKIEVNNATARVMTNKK
Under “RBNS enrichment (R)”, `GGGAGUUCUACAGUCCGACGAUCACCGAAAAGAGUUUAACCAGCCCAACUGUGCCAUCCCUGCCUCCACUUCAGAGGGAUGGAGAAAGAAGUGGAGAAGGUCCUUAACCUGCAGUUUCUGCCUUUAAGCCAAAUGGAAUUCUCGGGUGCCAA` is recorded as 0.55.
For `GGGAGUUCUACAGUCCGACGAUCCAGAAUUUAUACCAAGAGACUCUUGUAGACGCCGCGGAUGUCCUCUAUAUUGUGAUACAGAAACUGUCAACUUUUCGCUCUGUGAACUGUUUUUAAGACACUUUGAUGUUUGGAAUUCUCGGGUGCCAA`, “RBNS enrichment (R)” read 0.422.
Under “RBNS enrichment (R)”, `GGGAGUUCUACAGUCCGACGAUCAAGAAAUCCAGCCAAGUUCCUCUGUCCAAAUUUUUAAGUGCCCUUUGCAAGCUAAUCUAUUUGGCAAAAAAAUAGUCCCAGUUGUUCAACUAGCUCCCUUAAAACAUUCUUGGAAUUCUCGGGUGCCAA` is recorded as 0.408.
For `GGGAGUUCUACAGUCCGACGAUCUAUUACCAAGCGAGUGUUUGUAACCAUGUAGUUUUGGAACCCACUGCAAAAUUUUCUACUGGCCAAGUUCAAGUGAGUAAGCCGCGUCCCCCAACUACAGCUGGAGACGGUGGAAUUCUCGGGUGCCAA`, “RBNS enrichment (R)” read 0.251.
Under “RBNS enrichment (R)”, `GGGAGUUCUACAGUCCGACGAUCGAACUGCAGAAGUUUUUUUAAUGCCACUUUAACACUAAUGCACUGACAGAUUCUAAAUAUUUUGUGAGAAGAAAUGUUAAAAAUUUUUAGCUUGACAGGUUUCUAGAGUUUGGAAUUCUCGGGUGCCAA` is recorded as 1.07.
For `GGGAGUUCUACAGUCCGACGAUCUGAUGAUUGUAGAUUAAGCUGAAACAUAUAAUGAGAGCAAUGAGAACAAGUUUGUUUUGCCUGAUACAGUAUUAUAAUUGGUUUUGUAACUUUGAAGUCUUGUAUGAUUUUGGAAUUCUCGGGUGCCAA`, “RBNS enrichment (R)” read 1.29.
`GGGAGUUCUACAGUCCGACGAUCGCAUGCAGAGGUCUUCAGUCUUGCUUAUUCUUCUCCUGGGCUUCUUGACACAGGGGCAGAAGAAACCCCAGAUGUCCCAGAUGUCCCAGAACAUCAGCCCAAAAGACAGAUGGAAUUCUCGGGUGCCAA`: “RBNS enrichment (R)” 8.41.
`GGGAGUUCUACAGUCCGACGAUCACAUACUCCCGCCCCAAGGGAGGCUUCUCUCCAUCAGGGUGGUACACGGGCAACAAAGUAGGGAUUUGAUUCCCCUUUGAGGAGGUAGUGCUGUUUGCUUUUAGGUCUGGUGGAAUUCUCGGGUGCCAA`: “RBNS enrichment (R)” 0.456.

Study 2
Target: CCNB3, cyclin fold, Cln2 fusion (human)
Technique: yeast growth competition, sequencing
Matrix: yeast
Setting: weak parent motif
Baseline: not given
Reading: higher = stronger binding
Parent: RB1 docking peptide (human); PKPLKKLRFDIEG
Under “normalised enrichment score”, `PKPLKKLRFDNEG [I11N]` is recorded as 0.472.
Under “normalised enrichment score”, `PKPLKKLSFDIEG [R8S]` is recorded as 0.00258.
`PKPLGKLRFDIEG [K5G]` — result for “normalised enrichment score”: 0.4.
`PKPLKKLRGDIEG [F9G]` — result for “normalised enrichment score”: 0.353.
For `PKPLKKLRFSIEG [D10S]`, “normalised enrichment score” read -0.437.
For `PKPLSKLRFDIEG [K5S]`, “normalised enrichment score” read 0.328.
`PKPLKKLRLDIEG [F9L]` — result for “normalised enrichment score”: -0.115.
`PTPLKKLRFDIEG [K2T]` — result for “normalised enrichment score”: -0.24.
For `PMPLKKLRFDIEG [K2M]`, “normalised enrichment score” read 0.617.
`PKPLCKLRFDIEG [K5C]` — result for “normalised enrichment score”: 0.0174.
`PKPYKKLRFDIEG [L4Y]` — result for “normalised enrichment score”: -0.0902.

Study 3
Target: Prothrombin, mature alpha-thrombin (F2, Homo sapiens, UniProt P00734)
Technique: aptamer microarray, sandwich
Form: DNA with 2'F-ANA
Matrix: in vitro
Concentration: 200 nM
Setting: whole 15-mer aptamer, many near background
With: Cy3 exosite-II aptamer, 400 nM
Reading: higher = stronger binding
Strand: GGTTGGTGTGGTTGG
Under “mean fluorescence intensity”, `2'F-ANA at 1 3 4 5 7 10 12 13 14 15` is recorded as 58.7 a.u.
For `2'F-ANA at 1 2 3 4 8 9 10 11 12 15`, “mean fluorescence intensity” read 73.4 a.u.
`2'F-ANA at 2 4 6 7 12 13 15` — result for “mean fluorescence intensity”: 374 a.u.
Under “mean fluorescence intensity”, `2'F-ANA at 1 3 8 10 12 15` is recorded as 116 a.u.
For `2'F-ANA at 1 3 7 8 11 13`, “mean fluorescence intensity” read 303 a.u.
Under “mean fluorescence intensity”, `2'F-ANA at 1 2 3 5 6 7 8 10 11 14` is recorded as 49.3 a.u.
`2'F-ANA at 1 2 3 8 13 14 15` — result for “mean fluorescence intensity”: 72.6 a.u.
`2'F-ANA at 4 5 6 7 9 10 12 14`: “mean fluorescence intensity” 43.7 a.u.

Further values, each from its own experiment
`PhoQ, residues 284 288 289 292 302 303 TGYLSA` gave a fold induction of 7.28 (PhoP, residues 12 14 15 18 19 NQGLL (Escherichia coli, UniProt P23836); Sort-seq, item: YFP reporter; E. coli; PhoQ-PhoP variant library, with: 10 µM Mg2+; baseline: high Mg2+ state, higher = stronger signaling).

Excerpt of the above (study 1):
For `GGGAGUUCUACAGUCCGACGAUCCAGAAUUUAUACCAAGAGACUCUUGUAGACGCCGCGGAUGUCCUCUAUAUUGUGAUACAGAAACUGUCAACUUUUCGCUCUGUGAACUGUUUUUAAGACACUUUGAUGUUUGGAAUUCUCGGGUGCCAA`, “RBNS enrichment (R)” read 0.422.
Under “RBNS enrichment (R)”, `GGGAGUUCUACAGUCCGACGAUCAAGAAAUCCAGCCAAGUUCCUCUGUCCAAAUUUUUAAGUGCCCUUUGCAAGCUAAUCUAUUUGGCAAAAAAAUAGUCCCAGUUGUUCAACUAGCUCCCUUAAAACAUUCUUGGAAUUCUCGGGUGCCAA` is recorded as 0.408.
For `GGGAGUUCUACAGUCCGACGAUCUAUUACCAAGCGAGUGUUUGUAACCAUGUAGUUUUGGAACCCACUGCAAAAUUUUCUACUGGCCAAGUUCAAGUGAGUAAGCCGCGUCCCCCAACUACAGCUGGAGACGGUGGAAUUCUCGGGUGCCAA`, “RBNS enrichment (R)” read 0.251.
